Measurements of several laboratories.
Parts stem from different laboratories: compare values within a part only.

Study 1 — technique: aptamer microarray, sandwich; form: DNA with 2'F-ANA; sample: in vitro; tested at: 200 nM; with: Cy3 exosite-II aptamer, 400 nM; direction: higher = stronger binding; sequence: GGTTGGTGTGGTTGG
Target: Prothrombin, mature alpha-thrombin (F2, Homo sapiens, UniProt P00734)
Notes: whole 15-mer aptamer, many near background
Modification | mean fluorescence intensity
2'F-ANA at 2 7 9 10 12 15 | 195 a.u.
2'F-ANA at 2 3 5 10 | 70.8 a.u.
2'F-ANA at 1 3 7 8 12 15 | 753 a.u.
2'F-ANA at 3 4 5 8 10 13 | 50.1 a.u.
2'F-ANA at 1 9 11 15 | 152 a.u.
2'F-ANA at 4 5 6 10 12 13 | 54.7 a.u.
2'F-ANA at 3 4 6 7 9 13 14 15 | 226 a.u.
2'F-ANA at 1 2 5 6 9 10 14 | 116 a.u.
2'F-ANA at 1 6 7 8 11 12 15 | 308 a.u.
2'F-ANA at 2 5 6 7 8 9 13 | 55 a.u.
2'F-ANA at 4 6 8 10 12 13 14 | 151 a.u.
2'F-ANA at 2 5 7 10 12 14 | 56.7 a.u.
2'F-ANA at 1 2 4 6 8 10 11 12 14 15 | 145 a.u.
2'F-ANA at 2 4 5 9 11 14 15 | 51.7 a.u.
2'F-ANA at 1 3 4 7 8 10 12 15 | 85.2 a.u.
2'F-ANA at 1 4 5 8 9 11 12 15 | 85.6 a.u.
2'F-ANA at 1 2 3 4 8 9 10 13 | 52.2 a.u.
2'F-ANA at 2 3 6 8 9 12 14 15 | 386 a.u.
2'F-ANA at 3 4 5 8 10 11 12 13 | 48.8 a.u.
2'F-ANA at 4 9 10 11 13 | 67 a.u.

Study 2 — technique: RNA Bind-n-Seq; form: RNA; sample: in vitro; tested at: 365 nM; relative to: no-protein control; direction: higher = stronger binding
Target: RNA binding protein fox-1 homolog 2, RRM domain, GST-SBP tag (RBFOX2, Homo sapiens, UniProt O43251-10, residues 100-194)
Notes: natural RNA segment, single round, ends assumed
Shared flanks, not repeated: GGGAGUUCUACAGUCCGACGAUC … UGGAAUUCUCGGGUGCCAA
Residues (chain): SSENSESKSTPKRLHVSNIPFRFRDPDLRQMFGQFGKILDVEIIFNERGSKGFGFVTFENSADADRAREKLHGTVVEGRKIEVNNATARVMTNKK
Sequence | RBNS enrichment (R)
AUAAUCCUACUGUGAAGCUGUCGUUGAGAACUUAGGUUGGCACGUAGCGUCUCAAGGUAUGCGUUCUCUCAAAGGAAAGCUAUGCAUCGCUGCUUCGUUGUCUGAUUUUG | 0.357
ACUUUCUUGGAGAACCCCAUUGUGCACCCUGAGUUCUGCCUGUGCUUCGGCUGAUCCCAUAUUGGACCGGAUAGAGCUCAGCUCUUGCCUUUGUUGCUGCUAACACUGGA | 0.307
UCAUCAGUGUUGAAACAUUCACCAUGUGCUGGACGUAGGUUUUCAAUAAACACAGAUUGGUACCACCUAACACAAGGCUGUGUGAGUCUGUAGUAUGACCAUUACGCUGA | 0.281
GCAAGGCCUCCAGGGAUGGCCCCUAGCCACAGGCCCUGGCUGAGGUCUCUGGGUCGGUCAGUGACAUGUAGGUAGGAAGCACUGAAAAUAGUGUUCCCAGAGCACUUUGC | 0.319
UUAUUAAAAGCAAGUUUCUUUGUAUUCCUCACCCUAGAUUUGUAUAAAUGCCUUUUUGUCCAUCCCUUUUUUCUUUGUUGUUUUUGUUGAAAACAAACUGGAAACUUGUU | 0.451
GCCGGAUGCCCCACACACCGCCAGUGUCAUACCAAAGAGCUGAGCUGCUUCGGGGCCAUGCAGCCCUCCUGCCAGCCCCCUGCCCUUUUCUUGCCCUGUCUCUGAACCUU | 0.315
UUGCAGCACAUGAUGCCAGAAAUAGCACUGAAUCAAGAAAAUAGCCAUUGCGGAGCUGCCCUCUUGAGUCUUUCUGUCCAUCCCAUUCUAUUCUGUACUGUGACUUUAGU | 1.02
AGUUAAGUCACAGCUUAAUGUGUAGAUAUGAGCUGUUUACAGUGGUGACUAUAUAUAAUUGGGGAGAAGAAGGGAAGAGAGCAGCAGUAGCUUAAGCCUGUUGCUAAGAA | 2.12
UGGAUAAGUUACAUCGGGCUUCAUCAUCUAUACCUCCAUUUUUUCCUCCAGUUUUUAAUUUACUUUCGGAGUUUGUGUUGAUUUUGAUGGCACGUGACUUUUAAGCAGUA | 1.26
GGAAAUAUAAUGGCCUAAUUGUUUUCAAAAUGUAAGUUCCUGUGAAGAAUUUUGUUUAUAUUGGGUUGGGGACCUAUAGGUUUAAAAUAGAAUGUCAGUCAGCUGACUUA | 0.908
CCUGAGAGGUCAAGGUUGCAAUGAGCCAUAAUCAUACCACUGCACUCCAGCCUGGGCAACAGAGUGAGGCCCUGUCUCAAACACAUAAAAGGCAGUGGCCCACGCCUGUA | 0.308
CUCACCAUUAUUCAAGAUUGGGACUCGCUUCCCAGUCGACACUCUGCCCUGCCUGUCAUUGCUGCAAAGAGCUGCUGCUUUGCCAACCUAAGCAAAGAAAAUACGGCUUC | 0.467

Study 3 — technique: competition protein-binding microarray; form: double-stranded DNA, one strand shown; sample: in vitro; tested at: 2 µM; with: Pho4 competitor, 0.05 µM; direction: higher = stronger binding; shared flanks, not repeated: … GTCTTGATTCGCTTGACGCTGCTG
Target: Centromere-binding protein 1, full length, His-tagged (CBF1, Saccharomyces cerevisiae, UniProt P17106, residues 1-351)
UniProt P17106, sequence (whole entry, looked up): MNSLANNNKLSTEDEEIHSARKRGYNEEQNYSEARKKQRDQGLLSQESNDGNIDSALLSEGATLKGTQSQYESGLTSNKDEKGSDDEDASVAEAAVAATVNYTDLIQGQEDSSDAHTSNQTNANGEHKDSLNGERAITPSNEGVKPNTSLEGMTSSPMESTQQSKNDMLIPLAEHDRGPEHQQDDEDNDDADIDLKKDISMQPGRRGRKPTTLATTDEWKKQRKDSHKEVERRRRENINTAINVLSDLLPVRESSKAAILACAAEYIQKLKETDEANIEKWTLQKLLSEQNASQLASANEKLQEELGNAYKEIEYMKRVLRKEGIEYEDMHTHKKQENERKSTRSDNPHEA
Notes: whole 60-bp probe, lowest competitor level
Sequence | fluorescence intensity [a.u.]
TGGGACAAAAATGATACCGTGATGGGCCAAAGTAGA | 113
CTTCTGTAAATTTTTCACGTGGAGTGAAGCGCCCCG | 401
GTCTTGTCTCATTGTACTGTGGGTGTCCCCACTTCA | 70.7
CTTCTGTAAATTTGTGCAGTGGGTGGACGCGCCCCG | 81.3
CGGGGTTAAGTTTGACTGGTGGGTGGCTTGCAGCAG | 76.7
CGCTCCTTAGTAAAGCACGTGCCGATGATATCAATT | 3640
CTAACGAAGGTTTTTCACGTGCTTTACAAGCCAAGT | 1360
CATACCCAACCTTGTCGAGTGGGTGAAGATATTTGT | 63.3
ATTGAGAATAGTCATCAGGTGTAATGGAAGCTAATT | 154
CGTTGTCTGAGCAGGAATAAAGAGTTAAGAATATAG | 85.9
CGTCCTAGTGATTTTCACGTGTGTTCCATGAGGAAG | 570
CAATGGCTCAGTAACCTCGTGATGGAAAAAGGGCAA | 525
AAATTACTAAGTTGCAAAGTGGGTGACGCCGTATGA | 76.6
AGCAGTATGAACATTCGCGTGTCGGTTATAGTTGGT | 75.7
CACAAGTAGATTTGCCACGCACAACTTTAATACATG | 87.5
AGCAAGAAAACCCATCACGTGTGGATTCGGACCAAA | 2980
AAGGCAGAGGTTGGAAACGTGTGGAGACTCCAAATG | 86
GTCTTGTCTCATTGTGTAGTGGGTGTCCCCACTTCA | 87.9
AAAGCAAGAACCCTTCACATGTCAAACCTGAACGCA | 112

Study 4 — technique: protein binding microarray; form: double-stranded DNA, one strand shown; sample: in vitro; tested at: not given; relative to: not given; direction: higher = stronger binding
Target: Histone acetyltransferase KAT6A, winged helix 2, GST fusion (KAT6A, Homo sapiens, UniProt Q92794, residues 85-181)
Notes: 8-mer, flanks averaged, mean of 2 arrays, mostly near background
Residues (chain): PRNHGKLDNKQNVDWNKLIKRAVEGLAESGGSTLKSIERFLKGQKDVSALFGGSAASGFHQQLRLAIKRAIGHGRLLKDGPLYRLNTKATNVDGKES
Sequence | E-score
GCGTAACA | -0.112
GAGCCACA | -0.014
CACCACGG | -0.178
ATTATCTC | -0.0126
CGCAGTAA | 0.118
GTCTACGA | -0.209
CTAAGAAA | 0.166
AGATGGTC | -0.0606
CACCCTCA | -0.0146
CGTTGTTC | -0.0559
ACTGACGC | -0.0854
AGACCTAC | 0.0835
AGACTGAT | -0.0597
AATATGGT | 0.0196
CATCTCCA | -0.015
ATTGGGTC | 0.147
TCAGCGAA | -0.00091
CGTATCTA | -0.164
AGGTCTAA | -0.023
CTGATACC | -0.0423
GTTTCCCA | 0.113
AAGAAGAA | 0.0782
GAGCGATA | -0.0295
AGCGTAAC | -0.0185
GGGTTTTA | -0.106

Study 5 — technique: universal PBM; form: double-stranded DNA, one strand shown; sample: in vitro; tested at: not given; direction: higher = stronger binding
Target: Sal-like protein 4, full length isoform B (SALL4, Homo sapiens, UniProt Q9UJQ4-2, residues 1-616)
Notes: 8-mer, flanks averaged, mean of replicates
Sequence | E-score
CTAGACTA | -0.0123
TGTAGGAA | 0.125
GTAACGTA | 0.228
GGTGGGAA | -0.152
AAAAAACT | 0.213
ACAACCAG | -0.0407
ACTTATAA | 0.354
CTAAAACC | 0.0203
AGTTCTTG | 0.122
GTTAATGA | 0.24
AAGCATTA | 0.199
ACGATGAC | -0.0763
ACCTGGTA | -0.107
CGGGGAAC | -0.203
CTGATCTA | 0.0236
CGATCTAG | -0.045
TGGCGGAA | -0.161
CTGCAACA | -0.0251
AGACACTA | 0.128
CAACGGCA | -0.136
TAAACCAA | 0.236
AAGACCAC | -0.109

Excerpt of the above (study 3):
Sequence | fluorescence intensity [a.u.]
AAATTACTAAGTTGCAAAGTGGGTGACGCCGTATGA | 76.6
AGCAGTATGAACATTCGCGTGTCGGTTATAGTTGGT | 75.7
CACAAGTAGATTTGCCACGCACAACTTTAATACATG | 87.5
AGCAAGAAAACCCATCACGTGTGGATTCGGACCAAA | 2980
AAGGCAGAGGTTGGAAACGTGTGGAGACTCCAAATG | 86
